Results gathered from unrelated publications.
Compare with care: the assays were run in different laboratories. “And” joins repeats or separate records; there may be more than shown.

| SMILES | cell line | assay | setting | how to read | quantity | value |
| --- | --- | --- | --- | --- | --- | --- |
| CN1CCN(C(=O)c2ccc(-c3cc4c(N5CCC[C@H](C(=O)NCc6ccc(OC(F)(F)F)cc6)C5)ncnc4[nH]3)cc2)CC1 | NCI-H2228 | cell growth or viability, MTT | 1 µg/mL, 72 h | – | inhibition | 81.9% |
| COc1ccc(NC(=O)c2ccc3[nH]c(-c4ccc(N(C)C)cc4)nc3c2)cn1 | HCT-116 | Caspase-Glo | 8 µM, 16 h, unit not given | reference: DMSO | caspase-3/7 activity | 2.5 and 2.62 and 2.31 |
| COc1ccccc1-c1ccncc1C(=O)Nc1nnc(OCc2ccc(Cl)cc2)s1 | MDA-MB-436 BRCA1-mutant | – | 6 µM, mean of 3 replicates | reference: untreated | colony survival | 43.4% |
| O=C(C[Se]C(=O)c1cc2ccccc2s1)Nc1cccc(C(F)(F)F)c1 | NCI60 renal subpanel | cell growth, inhibitor | five-dose | – | GI50 | 1.63 µM |
| COc1c(C)c(O)c(C(=O)C=Cc2ccccc2)c(OC)c1C | SH-SY5Y | SRB | – | reference: normal over SH-SY5Y IC50 | selectivity index | 3.38 |
| Cn1ncc2cc(-c3cncc(Cl)c3N3CCC4(CCNC4=O)CC3)ccc21 | LS174T | gene expression, microarray, refers to: DIO2 mRNA | concentration not given, 24 h | reference: untreated cells | log2 fold change | -2.43 |
| CCN(CC)CC(=O)Nc1cccc(-n2cc(-c3ccc4ccc(-c5cn(-c6cccc(NC(=O)CN(CC)CC)c6)nn5)cc4c3)nn2)c1 | RCC4 | PCR angiogenesis array, refers to: THBS2 | 5 x IC50, 2 h, normoxia | reference: untreated | fold regulation | -1.05 fold |
| Cc1cc(NC2CCN(C)CC2)ccc1-c1cc2c(N3CCC[C@H](C(=O)N[C@H](C)c4ccccc4)C3)ncnc2[nH]1 | NCI-H2228 | cell growth or viability, MTT | 5 µg/mL, 72 h | – | inhibition | 95.2% |
| CN1CCCNC(=O)c2cccc(c2)C(=O)NCCCN(C)CCCNc2cccc3c2C(=O)c2cccc(c2C3=O)NCCC1 | SAS | RNA-Seq, refers to: ADAP2 mRNA | 1 µM, 6 h | reference: untreated cells | log2 fold change | 4.34 |
| Cc1ncsc1-c1ccc(C(C)NC(=O)C2CC(O)CN2C(=O)C(NC(=O)CCCCCCCCCCN2CCCC(Nc3ncc(Cl)c(Nc4ccccc4S(=O)(=O)C(C)C)n3)C2)C(C)(C)C)cc1 (centres unmarked) | 22Rv1 | RNA-seq, refers to: ZNF283 mRNA | concentration not given | reference: DMSO | log2 fold change | -1.22 |
| O=C(NCc1ccc(OC(F)(F)F)cc1)[C@H]1CCCN(c2ncnc3[nH]c(-c4cc(F)c(F)c(F)c4)cc23)C1 | NCI-H2228 | cell growth or viability, MTT | 0.04 µg/mL, 72 h | – | inhibition | -3.12% |
| CC(=O)Oc1ccccc1C(=O)[Se]CC(=O)Nc1cccc(C(F)(F)F)c1 | NCI60 renal subpanel | cell growth | 10 µM, 48 h, one-dose | – | mean growth percent | -57.4% |
| CC(C)c1ccc(N(C)c2ccc3c(c2)OCC[C@H]3CNc2cnccc2C(=O)O)cc1 | NCI-H2286 | cell growth or viability, ATP luminescence | 7 days | – | IC50 | 0.00351 µM |
| CC1=C/C(=N\N=C(/S)Nc2cccnc2)CC(C)(C)C1 | LDR | silenced CMV-GFP reporter derepression, qHTS | – | – | efficacy | 211% |
| COc1ccc(NC(=O)C2CCCN(c3ncnc4[nH]c(-c5ccc(NC6CCN(C)CC6)cc5C)cc34)C2)cc1 (centres unmarked) | NCI-H2228 | cell growth or viability, MTT | 0.04 µg/mL, 72 h | – | inhibition | 69.2% |
| CNS(=O)(=O)Nc1nccc(Cc2c(C)c3ccc(Oc4ncccc4F)cc3oc2=O)c1F | TT | cell viability, CellTiter-Glo | 7 days | – | IC50 | > 1 µM |
| COC1=C2CC(C)CC(OC)C(O)C(C)C=C(C)C(OC(N)=O)C(OC)C=CC=C(C)C(=O)NC(=CC1=O)C2=O (centres unmarked) | Rh30 | ChIP-seq, refers to: H3K36me3 peak | concentration not given, FIGNL1 TTS chr7:50505600-50516799 | reference: untreated control | log fold change | -0.538 |

Repeated from above:
| SMILES | cell line | assay | setting | how to read | quantity | value |
| --- | --- | --- | --- | --- | --- | --- |
| COc1ccccc1-c1ccncc1C(=O)Nc1nnc(OCc2ccc(Cl)cc2)s1 | MDA-MB-436 BRCA1-mutant | – | 6 µM, mean of 3 replicates | reference: untreated | colony survival | 43.4% |
| O=C(C[Se]C(=O)c1cc2ccccc2s1)Nc1cccc(C(F)(F)F)c1 | NCI60 renal subpanel | cell growth, inhibitor | five-dose | – | GI50 | 1.63 µM |
| COc1c(C)c(O)c(C(=O)C=Cc2ccccc2)c(OC)c1C | SH-SY5Y | SRB | – | reference: normal over SH-SY5Y IC50 | selectivity index | 3.38 |
